Earlier results that unrelated publications cite.
Each line is one published result; not all experiments were run side by side. ± gives the spread as reported.
UniProt Q14004, sequence (whole entry, looked up): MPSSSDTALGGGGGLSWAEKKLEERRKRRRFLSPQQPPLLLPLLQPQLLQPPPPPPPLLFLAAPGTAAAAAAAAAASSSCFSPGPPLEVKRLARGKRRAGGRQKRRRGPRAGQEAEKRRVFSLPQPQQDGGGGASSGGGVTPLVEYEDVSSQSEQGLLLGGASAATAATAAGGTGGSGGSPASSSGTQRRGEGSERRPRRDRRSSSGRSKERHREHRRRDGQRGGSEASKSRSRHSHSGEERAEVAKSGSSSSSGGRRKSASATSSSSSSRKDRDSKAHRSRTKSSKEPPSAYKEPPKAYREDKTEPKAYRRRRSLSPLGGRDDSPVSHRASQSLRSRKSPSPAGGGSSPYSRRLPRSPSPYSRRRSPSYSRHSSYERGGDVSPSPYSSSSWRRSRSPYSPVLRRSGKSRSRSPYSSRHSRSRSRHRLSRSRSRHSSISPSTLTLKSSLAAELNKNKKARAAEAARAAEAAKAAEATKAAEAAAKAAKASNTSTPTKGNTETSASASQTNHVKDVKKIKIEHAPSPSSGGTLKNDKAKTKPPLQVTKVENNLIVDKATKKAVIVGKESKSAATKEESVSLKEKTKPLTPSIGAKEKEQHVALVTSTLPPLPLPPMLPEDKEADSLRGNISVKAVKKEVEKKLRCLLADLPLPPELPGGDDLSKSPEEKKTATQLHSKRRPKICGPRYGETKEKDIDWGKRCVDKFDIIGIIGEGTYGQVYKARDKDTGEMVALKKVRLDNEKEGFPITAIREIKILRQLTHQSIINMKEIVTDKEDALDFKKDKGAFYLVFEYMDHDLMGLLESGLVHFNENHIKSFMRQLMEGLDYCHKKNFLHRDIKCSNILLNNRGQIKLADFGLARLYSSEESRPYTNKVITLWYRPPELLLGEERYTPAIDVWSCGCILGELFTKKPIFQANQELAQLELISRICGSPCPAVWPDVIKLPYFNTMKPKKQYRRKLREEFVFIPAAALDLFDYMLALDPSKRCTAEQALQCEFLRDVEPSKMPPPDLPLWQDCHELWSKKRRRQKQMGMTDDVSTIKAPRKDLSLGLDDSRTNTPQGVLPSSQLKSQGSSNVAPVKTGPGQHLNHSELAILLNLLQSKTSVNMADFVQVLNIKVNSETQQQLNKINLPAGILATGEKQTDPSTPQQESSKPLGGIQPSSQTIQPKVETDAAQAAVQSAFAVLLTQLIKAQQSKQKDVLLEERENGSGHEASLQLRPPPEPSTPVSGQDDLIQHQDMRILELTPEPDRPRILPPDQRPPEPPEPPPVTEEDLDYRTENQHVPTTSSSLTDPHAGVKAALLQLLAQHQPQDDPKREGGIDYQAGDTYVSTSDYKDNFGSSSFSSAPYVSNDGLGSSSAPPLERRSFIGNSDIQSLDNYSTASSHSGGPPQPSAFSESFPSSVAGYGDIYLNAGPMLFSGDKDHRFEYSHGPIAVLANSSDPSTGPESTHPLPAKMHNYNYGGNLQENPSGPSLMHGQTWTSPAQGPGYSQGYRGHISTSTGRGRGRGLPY

Compound	tested on	assay	test system	setting	how to read	measurement	result
COCCc1ccc(OCC(O)CNC(C)C)cc1 (stereo not drawn)	–	–	human fasted	200 mg multiple doses, day 5, mean	–	Cmax	101 ng/mL
Cc1nsc(-c2nnc3n2CCN(C(=O)c2ccc(F)cc2)[C@@H]3C)n1	–	–	human	oral, 45 mg, single dose, market formulation	–	Cmax	506 ng/mL
COc1cc2c(Oc3ccc4[nH]c(C)cc4c3F)ccnc2cc1OCC1(N)CC1	–	–	human, fasting	5 mg	–	Cmax	3.9 ± 1.6 ng/mL
COc1cccc2c1C(=O)c1c(O)c3c(c(O)c1C2=O)C[C@@](O)(C(=O)CO)C[C@@H]3O[C@H]1C[C@H](N)[C@H](O)[C@H](C)O1	–	–	human, plasma	intravenous infusion, 30 mg/m^2, 8 h infusion	–	Cmax	160 ± 90 nM
CNCc1cc(-c2ccccc2F)n(S(=O)(=O)c2cccnc2)c1	–	–	human, plasma	40 mg multiple dose, observed clinical data	–	Cmax	58 ng/mL
Cc1cc(C)c(CNC(=O)c2cc(Cl)c3c(c2C)O[C@@](C)([C@H]2CC[C@H](N(C)C)CC2)O3)c(=O)[nH]1	–	–	human, plasma	oral, 50 mg single dose, study, geometric mean	–	Cmax	306 ng/mL
Nc1cc(C(F)(F)F)c(-c2nc(N3CCOCC3)nc(N3CCOCC3)n2)cn1	Cyclin-dependent kinase 13 (CDK13, Homo sapiens, UniProt Q14004)	enzyme activity	–	10 µM	reference: untreated	remaining activity	80%
COc1ccc2[nH]c([S+]([O-])Cc3ncc(C)c(OC)c3C)nc2c1 (stereo not drawn)	–	–	human post-RYGB patients	oral tablet, 20 mg once daily, day 6, 6 months after surgery	–	Cmax	486 ng/mL
OC(Cn1cncn1)(Cn1cncn1)c1ccc(F)cc1F	–	–	human, plasma	intravenous, 100 mg single dose, mean observed	–	Cmax	2860 ng/mL
CCN1CCN(Cc2ccc(Nc3ncc(F)c(-c4cc(F)c5nc(C)n(C(C)C)c5c4)n3)nc2)CC1	–	–	human	100 mg single dose, tablet	–	Cmax	127 ng/mL
O=C(c1cccnc1-c1ccncc1)N1CCC(O)(Cc2ccccc2)CC1	–	–	human adults, moderate hepatic impairment, plasma	300 mg single dose	–	Cmax	3670 ng/mL
C=CC(=O)N1CCC([C@@H]2CCNc3c(C(N)=O)c(-c4ccc(Oc5ccccc5)cc4)nn32)CC1	–	–	human patients, plasma	oral, 160 mg twice daily, day 8	–	Cmax	344 ± 161 ng/mL

Repeated from above:
Compound	tested on	assay	test system	setting	how to read	measurement	result
CCN1CCN(Cc2ccc(Nc3ncc(F)c(-c4cc(F)c5nc(C)n(C(C)C)c5c4)n3)nc2)CC1	–	–	human	100 mg single dose, tablet	–	Cmax	127 ng/mL
